Measured values from different studies.
Numbers after ± are the reported error.

Structure (SMILES) | assay | system | conditions | AUC
CC[C@H](C)[C@@H]1NC(=O)[C@H](Cc2ccc(O)cc2)NC(=O)[C@@H](N)CSSC[C@@H](C(=O)N2CCC[C@H]2C(=O)N[C@@H](CC(C)C)C(=O)NCC(N)=O)NC(=O)[C@H](CC(N)=O)NC(=O)[C@H](CCC(N)=O)NC1=O | microdialysis, RIA | male C57BL/6J mouse, amygdala ECF | i.p., 12 µg | 61.5 ± 36.9 pg·30 min/sample
N#C[C@@H]1CCCN1C(=O)CNC12CC3CC(CC(O)(C3)C1)C2 | – | male ICR mouse, liver | oral, 3 mg/kg, 24 h | 22800 ng·h/mL
O=C(Nc1c(Cl)c[n+]([O-])cc1Cl)c1ccc(OC(F)F)c(OCC2CC2)c1 | – | db/db mouse | oral, 3 mg/kg/day, 28 days, steady state, geometric mean | 2630 ng·h/mL
OC[C@H]1O[C@@H](c2ccc(Cl)c(Cc3ccc(O[C@H]4CCOC4)cc3)c2)[C@H](O)[C@@H](O)[C@@H]1O | – | male ICR mouse, liver | oral, 3 mg/kg, 24 h | 2930 ng·h/mL
CNCCCC1(c2ccc(F)cc2)OCc2cc(C#N)ccc21 (stereo not drawn) | – | CD-1 mouse, pregnant female, gestation day 18, maternal serum | intraperitoneal, 20 mg/kg citalopram, single dose | 611 ± 66.4 ng·h/mL
OC[C@H]1O[C@@H](c2ccc(F)c(Cc3cc4ccccc4s3)c2)[C@H](O)[C@@H](O)[C@@H]1O | – | male ICR mouse, liver | oral, 3 mg/kg, 24 h | 19300 ng·h/mL
CC(=O)Nc1cccc(-n2c(=O)n(C3CC3)c(=O)c3c(Nc4ccc(I)cc4F)n(C)c(=O)c(C)c32)c1 | – | athymic nude mouse, tumour-bearing, plasma | oral, 5 mg/kg, single dose, with: sapanisertib 2 mg/kg | 644 ng·h/mL
COc1cccc2c1C(=O)c1c(O)c3c(c(O)c1C2=O)C[C@@](O)(C(=O)CO)C[C@@H]3O[C@H]1C[C@H](N)[C@H](O)[C@H](C)O1 | – | mouse, E0771 tumour-bearing, liver | intravenous, 92 µmol/kg | 2180 µM·h
CN(C)CCCC1(c2ccc(F)cc2)OCc2cc(C#N)ccc21 (racemic) | – | CD-1 mouse, pregnant female, gestation day 14, maternal serum | intraperitoneal, 20 mg/kg | 1390 ± 48 ng·h/mL
COc1ccc2c(c1)c(CC(=O)O)c(C)n2C(=O)c1ccc(Cl)cc1 | – | male ICR mouse, kidney | oral, 3 mg/kg, 24 h | 37400 ng·h/mL
O=C(N[C@@H](Cn1ccnc1)c1ccc(Cl)cc1Cl)c1ccc(-c2nnc(-c3ccccc3)o2)cc1 | – | mouse, plasma | oral, 25 mg/kg, HPCD formulation | 55 ng·h/mL
Cc1cc(Nc2cc3ncccc3c(N[C@@H]3C[C@H]4CC[C@@H](C3)N4CCC#N)n2)n[nH]1 | – | male BALB/c mouse, plasma | oral, 10 mg/kg, 0 to 24 h | 0.006 ± 0.002 µM·h

Repeated from above:
Structure (SMILES) | assay | system | conditions | AUC
CC[C@H](C)[C@@H]1NC(=O)[C@H](Cc2ccc(O)cc2)NC(=O)[C@@H](N)CSSC[C@@H](C(=O)N2CCC[C@H]2C(=O)N[C@@H](CC(C)C)C(=O)NCC(N)=O)NC(=O)[C@H](CC(N)=O)NC(=O)[C@H](CCC(N)=O)NC1=O | microdialysis, RIA | male C57BL/6J mouse, amygdala ECF | i.p., 12 µg | 61.5 ± 36.9 pg·30 min/sample
CC(=O)Nc1cccc(-n2c(=O)n(C3CC3)c(=O)c3c(Nc4ccc(I)cc4F)n(C)c(=O)c(C)c32)c1 | – | athymic nude mouse, tumour-bearing, plasma | oral, 5 mg/kg, single dose, with: sapanisertib 2 mg/kg | 644 ng·h/mL
